# Assay results pooled from the literature.
# A part holds a random share of what one study measured. Positions count from the first letter of the parent shown.

# Study 1
# Target: CCND1, cyclin fold, Cln2 fusion (human)
# Method: yeast growth competition, sequencing
# Matrix: yeast
# Setting: strong parent motif
# Relative to: not given
# Direction: higher = stronger binding
# Starting sequence: PKN2 docking peptide (human); VSAVRKLDFSDTM
Variant,normalised enrichment score
VSAVRKLDFEDTM [S10E],5.13
VSAVRDLDFSDTM [K6D],0.565
VSARRKLDFSDTM [V4R],5.21
VPAVRKLDFSDTM [S2P],3.4
VSLVRKLDFSDTM [A3L],1.01
VSAVKKLDFSDTM [R5K],2.62
VSAVRMLDFSDTM [K6M],3.49
VSAVRTLDFSDTM [K6T],2.44
VSAVRKQDFSDTM [L7Q],0.124
VSAVRKWDFSDTM [L7W],0.203
VSADRKLDFSDTM [V4D],0.248
VSAVRKLAFSDTM [D8A],1.61
VSAGRKLDFSDTM [V4G],1.53
VSAVPKLDFSDTM [R5P],0.491
VSAVRKLDFLDTM [S10L],3.8
VCAVRKLDFSDTM [S2C],4.78
VSAVRKLGFSDTM [D8G],0.726
VSAWRKLDFSDTM [V4W],0.414
VEAVRKLDFSDTM [S2E],1.56
VSAVRKLDKSDTM [F9K],-0.00877
VSAVRKLDFSTTM [D11T],4.96
VSAVRKLIFSDTM [D8I],2.79
VSAVRKLDMSDTM [F9M],0.973
VSTVRKLDFSDTM [A3T],2.88
VSAVRKLKFSDTM [D8K],2.04

# Study 2
# Target: TAR DNA-binding protein 43, full length, His tag (TARDBP, Homo sapiens, UniProt Q13148, residues 1-414)
# Method: RNA Bind-n-Seq
# Molecule type: RNA
# Matrix: in vitro
# Tested at: 20 nM
# Setting: 6-mer, flanks averaged, single round
# With: 150 mM LiCl
# Relative to: input library
# Direction: higher = stronger binding
Oligonucleotide,6-mer enrichment (R)
GACGGA,0.976
CGACCU,0.816
CUAAGU,0.892
CGCGCU,0.929
UUACCC,1.04
GACGUC,0.895
UUGUAA,1.01
GCGUCG,1.1
AUUGUA,0.997
CAAACU,0.818
UUUCUU,1.22
AGCUUA,0.856
UAGCCU,0.938
AAACCC,0.907
GCCCUG,1.02
UUUGCG,1.19
UAACUC,0.883

# Study 3
# Target: Fragile X messenger ribonucleoprotein 1, C-terminal low-complexity region (Fmr1, Mus musculus, UniProt P35922)
# Method: RNA Bind-n-Seq
# Molecule type: RNA
# Matrix: in vitro
# Tested at: 200 nM
# Setting: whole 134-nt RNA, ends assumed
# With: 150 mM KCl
# Relative to: input library
# Direction: higher = stronger binding
# Constant ends, left off below: GGGAGUUCUACAGUCCGACGAUC … UGGAAUUCUCGGGUGUCAAGG
Oligonucleotide,log2 enrichment
CUCAAGUCCUGUGCUACACAUCGUAUGUACCGAAUCGGGGCGGGGCGGGGCGGAAAGUAUUAUGUUACGCCGUUCGGAUCUGCACUUCCA,0.901
CUGUGCUACACAUCGUAUGUACCGAAUCGGGGAAAAAAAGGAAAAAAAGGGAAAAAAAGGGAAAGUAUUAUGUUACGCCGUUCGGAUCUG,-0.955
UCAAGUCCUGUGCUACACAUCGUAUGUACCGAAUCGGGGAAAGGAAAGGGAAAGGAAAGUAUUAUGUUACGCCGUUCGGAUCUGCACUUC,-0.349
UCAAGUCCUGUGCUACACAUCGUAUGUACCGAAUCGGUUUUUGGUUUUUGGUGGAAAGUAUUAUGUUACGCCGUUCGGAUCUGCACUUCC,-0.585
CACAGACAACACGCACCCACACAGACACAGAGGGAAGGGGUUGGGAUGGGGACAGGGUGCACAGCAGGGCGGGGUAGGACCCCAGCCUCU,1.15
UCCUGUGCUACACAUCGUAUGUACCGAAUCGGGGAAAGGGGUUUUUGGGGUUUUUGGGGAAAGUAUUAUGUUACGCCGUUCGGAUCUGCA,0.864
AGUCCUGUGCUACACAUCGUAUGUACCGAAUCGGAAAAAGGUUUUUUUGGUUUUUGGAAAGUAUUAUGUUACGCCGUUCGGAUCUGCACU,-1.55
CCUGUGCUACACAUCGUAUGUACCGAAUCGGGCCCCCCGGGGCCCCCCGGGCCCCCCGGGAAAGUAUUAUGUUACGCCGUUCGGAUCUGC,-0.856
UAACUUUAGAGGAGGAUCUGAUGGAUAUGGCAGUGGACGUGGAUUUGGGGAUGGCUAUAAUGGGUAUGGAGGAGGACCUGGAGGUGGAAA,0.0786

# Other studies, line by line
Substance,target,test,test system,setting,scale,measurement,value
"PhoQ, residues 284 288 289 292 302 303 STVVAA","PhoP, residues 12 14 15 18 19 NQFFI (Escherichia coli, UniProt P23836)","Sort-seq, refers to: YFP reporter",E. coli,"PhoQ-PhoP variant library, with: 10 µM Mg2+","relative to: high Mg2+ state, higher = stronger signaling",fold induction,14.1
